Experimental data collected from several papers.
Protocols differ between the studies behind these lines. “And” joins repeats or separate records; there may be more than shown. Numbers after ± are the reported error.

| SMILES | cell line | assay | conditions | scale | endpoint | value |
| --- | --- | --- | --- | --- | --- | --- |
| Clc1nc(NCc2ccco2)c2[nH]cnc2n1 | FD iPSC-derived cardiomyocytes | alternative splicing, RNA-seq, refers to: FANCL exon chr2(-):58163028-58163074 | unit not given | relative to: DMSO minus compound | ΔPSI | -0.387 |
| Nc1cc(C(F)(F)F)c(-c2cc(N3CCOCC3)nc(N3CCOCC3)n2)cn1 | HD-MB03 | cell growth | 168 h, single agent | – | IC50 | 0.512 µM |
| Cc1cnc(NC2CCOCC2)nc1-n1cnc(C(=O)NC(CN)c2cc(F)cc(Cl)c2)c1 (stereo not drawn) | A-375 | flow cytometry | 1 µM, 24 h | – | G1 phase cells | 93.4% |
| CC/C(=N\NC(=O)NCc1cccc(O)c1)c1ccc(O)c(C)c1O | SK-OV-3 | Western blot | 10 µM, 3 h, 3D gellan gum culture, unit not given | relative to: DMSO | LATS band intensity | 0.43 ± 0.22 |
| O=C(O)COCC(=O)O | iPSC-derived hepatocytes B3 | cell viability | 24 h, differentiation day 23 | – | IC50 | 8180 µM |
| CCC(C)n1ncn(-c2ccc(N3CCN(c4ccc(OCC5COC(Cn6cncn6)(c6ccc(Cl)cc6Cl)O5)cc4)CC3)cc2)c1=O (stereo not drawn) | HD-MB03 | cell growth | 168 h, DMSO | – | IC50 | 1.7 µM |
| O=C(/C=C/C=C/C=C/C1CCCCC1)NC1=C[C@@](O)(/C=C/C=C/C=C/C(=O)NC2=C(O)CCC2=O)[C@@H]2O[C@@H]2C1=O | melho | cell growth, inhibitor, CellTiter-Glo luminescence | 78 h | relative to: day 0 cell count | GI50 | 6.49 µM |
| CCn1cc(-c2cc(Cn3ccoc3=N)cc3c2CCN([C@@H](C)c2cc(OC)ccn2)C3=O)c(C(F)(F)F)n1 | COV504 | cell growth, inhibitor | 120 h | – | EC50 | 0.00745 µM |
| Cn1cc(-c2ccc(-c3cncc(Cl)c3N3CCC4(CCNC4=O)CC3)cc2)cn1 | COLO 205 | gene expression, microarray, refers to: SLC2A1 (GLUT1) mRNA | concentration not given, 2 h | relative to: untreated cells | log2 fold change | 3.47 |
| Cc1nn(-c2nc3c(F)cc(F)cc3s2)c(O)c1C(c1ccc(C(F)(F)F)cc1)c1c(C)nn(-c2nc3c(F)cc(F)cc3s2)c1O | THP1-Dual | western blot | 20 µM, dose series, added: HT-DNA | relative to: DMSO | phospho-TBK1 to TBK1 ratio | 0.54 and 0.645 and 0.619 |
| COc1ccc(-n2nc(C(C)=O)s/c2=N\N=C(/C)c2ccc(NC(=O)c3ccc(Cl)cc3)cc2)cc1 | MCF7 | – | 10 µM | – | viability | 3.49% |
| Cc1cccc(-c2[nH]c(CNc3ccccc3F)nc2-c2ccc3ncnn3c2)n1 | MM1.S | XTT | 2.5 µM | relative to: untreated | viability | 14% |
| C=Cc1c2[n-]c(c1C)/C=c1\[n-]/c(c(C)c1C=C)=C\c1[n-]c(c(CCC(=O)O)c1C)/C=c1\[n-]c(c(C)c1CCC(=O)O)=C2.[Sn+4] | SH-SY5Y | RNA-seq, refers to: FLNC mRNA | 5 µM, 5 h | relative to: untreated cells | fold change | 1.82 |
| CC1(C)OCCn2c1nc1c(N3CCOCC3)nc(-c3cnc(N)nc3)nc12 | HD-MB03 | – | added: ribociclib 5 µM | relative to: ribociclib over DMSO | fold change in IC50 | 2.46 |
| COc1cnc2cccc(N3CCc4c(cc(Cn5ccnc5C)cc4-c4cn(C)nc4C(F)(F)F)C3=O)c2c1 | JeKo-1 | cell growth, inhibitor | 120 h | – | EC50 | 1.17 µM |
| Cn1cc(Nc2nccc(-c3ccc4c(c3)CN(C3COC3)CC[C@H]4NC(=O)c3cn(C(C)(C)C)nn3)n2)cn1 | mouse splenic B cells | refers to: IL-6 signalling | 30 mg/kg, IgD-activated in vivo | relative to: vehicle, direction not given | pathway activation z-score | 0.943 |
| COc1cc([C@@H]2c3cc4c(cc3[C@@H](O[C@@H]3O[C@@H]5CO[C@@H](C)O[C@H]5[C@H](O)[C@H]3O)[C@H]3COC(=O)[C@H]23)OCO4)cc(OC)c1O | HD-MB03 | cell growth | 168 h, DMSO | – | IC50 | 0.0462 µM |
| Cc1cc(Nc2ncc(Cl)c(Nc3ccccc3S(=O)(=O)C(C)C)n2)c(OC(C)C)cc1C1CCNCC1 | NCI-H3122 (EML4-ALK variant 1) | cell viability | – | – | Emax | 78.1% |
| COc1ccc(NC(=S)N/N=C/c2cccc3cc4ccccc4nc23)cc1 | HeLa | annexin V/PI flow cytometry | IC50, 48 h | – | early apoptotic cells | 9.63 ± 1.1% |
| CNNCc1ccc(C(=O)NC(C)C)cc1 | primary rat hippocampal/cortical neuron-glia cultures | – | 1 µM, added: 1 µM α-synuclein oligomers | – | reversal of trafficking deficit | -15.4% |
| COc1cc2ncnc(Nc3ccc(Oc4ccccc4)cc3C)c2cc1OC | A-375 | – | 3 µM, 72 h | – | viability | 75.3% |
